Results collected from several papers.
Lines come from different studies, so protocols differ. “And” joins repeats or separate records; there may be more than shown. Numbers after ± are the reported error.
SMARCA2: SWI/SNF-related matrix-associated actin-dependent regulator of chromatin subfamily A member 2 (SMARCA2, Homo sapiens, UniProt P51531)
Sequence of UniProt P51531 (whole entry, looked up): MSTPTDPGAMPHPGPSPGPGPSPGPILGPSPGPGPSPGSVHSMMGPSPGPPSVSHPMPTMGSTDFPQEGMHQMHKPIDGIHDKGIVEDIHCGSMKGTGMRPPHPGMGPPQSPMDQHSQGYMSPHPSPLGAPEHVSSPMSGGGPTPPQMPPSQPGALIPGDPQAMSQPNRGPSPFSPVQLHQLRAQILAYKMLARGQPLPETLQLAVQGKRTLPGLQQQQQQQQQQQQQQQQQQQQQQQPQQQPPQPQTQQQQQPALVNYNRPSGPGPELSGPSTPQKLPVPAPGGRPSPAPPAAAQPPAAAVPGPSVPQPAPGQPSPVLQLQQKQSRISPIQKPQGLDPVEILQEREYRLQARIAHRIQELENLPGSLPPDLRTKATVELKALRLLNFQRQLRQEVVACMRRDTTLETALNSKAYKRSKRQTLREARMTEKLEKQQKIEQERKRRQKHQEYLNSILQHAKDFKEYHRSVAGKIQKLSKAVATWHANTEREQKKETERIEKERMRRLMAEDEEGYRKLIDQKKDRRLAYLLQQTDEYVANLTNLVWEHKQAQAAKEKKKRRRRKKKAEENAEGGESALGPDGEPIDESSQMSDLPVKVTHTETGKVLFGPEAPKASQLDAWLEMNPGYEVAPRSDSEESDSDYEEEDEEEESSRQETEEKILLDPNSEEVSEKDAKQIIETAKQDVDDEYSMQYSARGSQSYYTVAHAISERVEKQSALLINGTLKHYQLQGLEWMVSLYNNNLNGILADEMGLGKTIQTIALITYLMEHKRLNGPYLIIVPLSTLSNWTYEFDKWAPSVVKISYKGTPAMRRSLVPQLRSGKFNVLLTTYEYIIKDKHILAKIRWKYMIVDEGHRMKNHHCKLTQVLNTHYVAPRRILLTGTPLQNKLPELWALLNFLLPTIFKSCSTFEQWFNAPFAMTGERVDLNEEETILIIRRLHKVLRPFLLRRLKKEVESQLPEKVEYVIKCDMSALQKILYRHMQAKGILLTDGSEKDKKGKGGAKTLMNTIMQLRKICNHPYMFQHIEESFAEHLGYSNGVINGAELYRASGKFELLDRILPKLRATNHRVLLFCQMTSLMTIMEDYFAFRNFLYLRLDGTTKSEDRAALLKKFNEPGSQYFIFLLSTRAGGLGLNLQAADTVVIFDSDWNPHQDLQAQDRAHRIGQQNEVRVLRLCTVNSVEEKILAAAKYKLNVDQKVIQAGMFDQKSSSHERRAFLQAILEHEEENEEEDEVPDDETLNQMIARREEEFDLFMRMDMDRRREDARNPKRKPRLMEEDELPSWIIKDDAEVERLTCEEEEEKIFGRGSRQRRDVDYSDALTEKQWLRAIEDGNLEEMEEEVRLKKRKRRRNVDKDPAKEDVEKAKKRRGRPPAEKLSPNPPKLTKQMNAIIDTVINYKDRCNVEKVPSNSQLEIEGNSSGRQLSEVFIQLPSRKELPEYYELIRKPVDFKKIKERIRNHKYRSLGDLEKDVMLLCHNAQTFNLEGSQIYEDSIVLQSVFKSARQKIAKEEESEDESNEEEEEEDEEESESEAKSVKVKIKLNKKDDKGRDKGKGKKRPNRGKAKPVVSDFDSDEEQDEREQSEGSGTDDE
USP13 ZnF-UBD domain: Ubiquitin carboxyl-terminal hydrolase 13, ZnF-UBD domain (USP13, Homo sapiens, UniProt Q92995)
Sequence of UniProt Q92995 (whole entry, looked up): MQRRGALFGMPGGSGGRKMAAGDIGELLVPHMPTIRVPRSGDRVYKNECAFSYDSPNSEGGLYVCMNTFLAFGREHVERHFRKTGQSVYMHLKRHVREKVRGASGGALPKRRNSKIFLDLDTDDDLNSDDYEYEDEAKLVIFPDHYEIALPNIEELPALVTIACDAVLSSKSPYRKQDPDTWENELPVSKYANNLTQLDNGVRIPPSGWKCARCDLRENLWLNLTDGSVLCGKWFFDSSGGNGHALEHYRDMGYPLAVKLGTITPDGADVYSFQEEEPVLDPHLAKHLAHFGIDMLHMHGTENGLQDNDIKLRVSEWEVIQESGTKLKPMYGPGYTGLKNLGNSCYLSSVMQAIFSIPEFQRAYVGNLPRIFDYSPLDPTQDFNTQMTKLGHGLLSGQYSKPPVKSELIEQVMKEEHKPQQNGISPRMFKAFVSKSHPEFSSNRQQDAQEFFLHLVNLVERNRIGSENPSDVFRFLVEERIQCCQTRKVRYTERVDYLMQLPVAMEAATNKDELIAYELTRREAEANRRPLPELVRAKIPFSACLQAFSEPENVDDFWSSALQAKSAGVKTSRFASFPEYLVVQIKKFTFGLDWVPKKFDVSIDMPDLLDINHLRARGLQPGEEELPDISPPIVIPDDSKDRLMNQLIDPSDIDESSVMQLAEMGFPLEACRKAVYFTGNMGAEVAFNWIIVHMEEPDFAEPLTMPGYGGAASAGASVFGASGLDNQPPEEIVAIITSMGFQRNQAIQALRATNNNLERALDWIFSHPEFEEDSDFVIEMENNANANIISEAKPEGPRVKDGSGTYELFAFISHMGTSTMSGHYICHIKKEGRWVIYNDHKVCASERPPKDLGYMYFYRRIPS
Sequence of UniProt Q9UBN7 (whole entry, looked up): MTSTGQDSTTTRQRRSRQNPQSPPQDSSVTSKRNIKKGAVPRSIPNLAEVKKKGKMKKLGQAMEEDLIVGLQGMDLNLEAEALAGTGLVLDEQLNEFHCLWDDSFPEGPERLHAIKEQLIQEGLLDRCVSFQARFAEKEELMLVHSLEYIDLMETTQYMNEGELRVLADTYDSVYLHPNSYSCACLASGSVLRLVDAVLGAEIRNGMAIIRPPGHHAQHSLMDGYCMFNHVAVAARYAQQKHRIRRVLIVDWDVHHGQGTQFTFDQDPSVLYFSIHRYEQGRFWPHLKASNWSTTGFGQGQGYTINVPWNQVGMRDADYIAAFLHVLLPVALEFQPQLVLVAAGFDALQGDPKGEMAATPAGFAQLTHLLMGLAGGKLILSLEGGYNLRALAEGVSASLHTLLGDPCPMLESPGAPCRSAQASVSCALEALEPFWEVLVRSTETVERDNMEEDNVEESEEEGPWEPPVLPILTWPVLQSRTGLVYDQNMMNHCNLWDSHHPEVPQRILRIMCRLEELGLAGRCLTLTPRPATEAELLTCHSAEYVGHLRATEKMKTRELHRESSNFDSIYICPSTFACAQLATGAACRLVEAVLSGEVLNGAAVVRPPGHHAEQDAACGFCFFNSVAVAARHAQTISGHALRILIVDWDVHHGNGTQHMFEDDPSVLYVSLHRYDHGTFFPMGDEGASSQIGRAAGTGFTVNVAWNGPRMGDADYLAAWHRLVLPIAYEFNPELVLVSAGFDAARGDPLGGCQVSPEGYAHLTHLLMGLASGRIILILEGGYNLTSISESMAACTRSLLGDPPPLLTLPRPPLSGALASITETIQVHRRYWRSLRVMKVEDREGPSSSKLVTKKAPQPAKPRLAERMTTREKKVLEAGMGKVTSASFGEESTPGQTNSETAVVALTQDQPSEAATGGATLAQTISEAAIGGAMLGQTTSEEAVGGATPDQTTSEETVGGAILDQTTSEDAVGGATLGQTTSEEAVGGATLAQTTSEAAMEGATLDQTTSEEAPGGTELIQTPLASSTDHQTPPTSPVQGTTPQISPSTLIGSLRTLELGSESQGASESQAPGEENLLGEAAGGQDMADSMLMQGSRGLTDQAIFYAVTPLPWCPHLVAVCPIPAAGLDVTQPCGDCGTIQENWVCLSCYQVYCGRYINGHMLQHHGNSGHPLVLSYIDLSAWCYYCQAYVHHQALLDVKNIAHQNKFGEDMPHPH
Sequence of UniProt P34995 (whole entry, unmodified, looked up): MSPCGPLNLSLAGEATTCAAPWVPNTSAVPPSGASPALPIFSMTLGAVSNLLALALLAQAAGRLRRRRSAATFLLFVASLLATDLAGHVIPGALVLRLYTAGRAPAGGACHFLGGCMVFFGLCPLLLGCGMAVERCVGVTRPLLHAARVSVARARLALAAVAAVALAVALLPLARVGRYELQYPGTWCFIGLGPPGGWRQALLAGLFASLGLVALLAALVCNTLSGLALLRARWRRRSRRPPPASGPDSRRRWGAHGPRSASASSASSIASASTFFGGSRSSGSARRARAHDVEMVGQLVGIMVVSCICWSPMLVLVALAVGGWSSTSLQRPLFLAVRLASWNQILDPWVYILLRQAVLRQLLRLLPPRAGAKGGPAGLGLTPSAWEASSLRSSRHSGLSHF
Sequence of UniProt P50613 (whole entry, looked up): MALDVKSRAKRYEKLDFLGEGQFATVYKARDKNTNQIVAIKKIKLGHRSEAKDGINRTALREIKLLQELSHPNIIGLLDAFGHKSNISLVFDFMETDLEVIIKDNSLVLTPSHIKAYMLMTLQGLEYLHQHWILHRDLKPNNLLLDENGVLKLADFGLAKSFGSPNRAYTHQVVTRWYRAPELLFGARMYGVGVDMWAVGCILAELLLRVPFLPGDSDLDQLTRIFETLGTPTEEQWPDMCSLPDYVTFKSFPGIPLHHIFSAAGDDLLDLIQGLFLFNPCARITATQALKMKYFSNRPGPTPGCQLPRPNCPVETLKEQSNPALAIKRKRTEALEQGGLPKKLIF

| Compound | tested on | assay | test system | setting | how to read | measurement | result |
| --- | --- | --- | --- | --- | --- | --- | --- |
| CC(=O)N[C@H]1[C@H](O[C@H]2[C@H](O)[C@@H](NC(C)=O)C(O)O[C@@H]2CO)O[C@H](CO)[C@@H](O[C@@H]2O[C@H](CO)[C@@H](O[C@@H]3O[C@H](CO)[C@@H](O)[C@H](O)[C@H]3NC(C)=O)[C@H](O)[C@H]2NC(C)=O)[C@@H]1O (some centres unmarked) | – | LCO binding, radioligand competition binding | membrane fractions | with: radiolabelled LCO-V(C18:1,NMe) | – | Ki | 30.8 nM and 37 nM |
| Nc1nnc(-c2ccccc2O)cc1N1CCN(Cc2ccc(OCCOCCNc3cccc4c3C(=O)N(C3CCC(=O)NC3=O)C4=O)c(F)c2)CC1 (centres unmarked) | SMARCA2 | degrader, immunoblot | NCI-H1975 | 96 h | – | DC50 | 297 nM |
| COc1ccc(C=C2SC(=O)N(C(C)C(=O)O)C2=O)cc1 (centres unmarked) | Protein deacetylase HDAC6, ZnF-UBD domain (HDAC6, Homo sapiens, UniProt Q9UBN7) | – | – | – | – | Kd | > 1000 µM |
| CC(C)c1cc(C(=O)N2Cc3ccc(CN4CCN(C)CC4)cc3C2)c(O)cc1O | – | binding, radioligand competition | mouse brain homogenate | with: [3H]HSP990 0.6 nM | – | Ki | 18 nM |
| O=C(O)CCC(=O)c1ccc(S(=O)(=O)N2CCCC2)cc1 | USP13 ZnF-UBD domain | – | – | – | – | Kd | > 1000 µM |
| CCCCC[C@H](O)/C=C/[C@H]1[C@H](O)CC(=O)[C@@H]1C/C=C\CCCC(=O)O | PTGER1 (Homo sapiens, UniProt P34995, C136A) | IP1 accumulation, agonist | AD293 | EP1 C136A mutant | – | EC50 | 2.46 nM |
| Nc1nnc(-c2ccccc2O)cc1N1CCN(Cc2ccc(N3CCN(CCOc4cccc5c4C(=O)N(C4CCC(=O)NC4=O)C5=O)CC3)c(F)c2)CC1 (centres unmarked) | SMARCA2 | degrader, immunoblot | H1792 SMARCA4 wild-type | 24 h | – | DC50 | 7.6 nM |
| CC[C@@H]1[C@H](F)C(=O)N[C@@H]1COc1nccc2cc(C(N)=O)c(OC)cc12 | CDK7 (Homo sapiens, UniProt P50613) | ATP probe binding, KiNativ profiling, refers to: Lys1 probe site | THP-1 cell lysate | – | – | IC50 | 3.3 µM |
| CC(C)C[C@H](NC(=O)C[C@H](O)[C@H](CC(C)C)NC(=O)[C@H](Cc1c[nH]cn1)NC(=O)CNC(=O)[C@@H](NC(=O)[C@H](C)NC(=O)[C@H](Cc1c[nH]c2ccccc12)NC(=O)[C@H](CCC(N)=O)NC(=O)[C@@H](Cc1ccccc1)NC(=O)COCCOCCNC(=O)CN1CCN(CC(=O)O)CCN(CC(=O)O)CCN(CC(=O)O)CC1)C(C)C)C(N)=O [lutetium-177 labelled] | – | – | female BALB/c nu/nu mice, kidneys | intravenous, 50 pmol, 1 h | – | tissue uptake | 3.4 ± 0.5 %ID/g |
| Cn1cc(-c2ccc(-c3cncc(Cl)c3N3CCC4(CCNC4=O)CC3)cc2)cn1 | COLO 205 | gene expression, microarray, refers to: CARD6 mRNA | – | concentration not given, 6 h | reference: untreated cells | log2 fold change | 6.47 |
| O=C(O)CNc1ccc2nncn2n1 | USP13 ZnF-UBD domain | – | – | – | – | Kd | 780 µM |
